Assay results collected from several papers.
Protocols differ between the studies behind these lines. ± gives the spread as reported.
CHRM1: Muscarinic acetylcholine receptor M1 (CHRM1, Homo sapiens, UniProt P11229)
Sequence of UniProt P11229 (whole entry, looked up): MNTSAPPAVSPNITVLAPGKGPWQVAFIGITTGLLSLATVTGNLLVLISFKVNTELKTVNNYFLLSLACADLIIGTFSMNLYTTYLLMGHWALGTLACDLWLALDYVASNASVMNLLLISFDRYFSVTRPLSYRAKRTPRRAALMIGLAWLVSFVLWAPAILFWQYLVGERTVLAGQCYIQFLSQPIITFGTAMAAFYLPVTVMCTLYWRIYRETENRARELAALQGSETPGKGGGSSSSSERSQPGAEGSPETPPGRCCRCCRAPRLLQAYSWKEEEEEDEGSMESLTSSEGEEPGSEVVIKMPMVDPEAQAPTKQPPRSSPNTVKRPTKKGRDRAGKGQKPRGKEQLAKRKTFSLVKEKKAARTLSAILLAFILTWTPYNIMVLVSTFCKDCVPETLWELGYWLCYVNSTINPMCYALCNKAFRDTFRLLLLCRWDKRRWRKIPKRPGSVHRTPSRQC
Sequence of UniProt Q8R2Y0 (whole entry, looked up): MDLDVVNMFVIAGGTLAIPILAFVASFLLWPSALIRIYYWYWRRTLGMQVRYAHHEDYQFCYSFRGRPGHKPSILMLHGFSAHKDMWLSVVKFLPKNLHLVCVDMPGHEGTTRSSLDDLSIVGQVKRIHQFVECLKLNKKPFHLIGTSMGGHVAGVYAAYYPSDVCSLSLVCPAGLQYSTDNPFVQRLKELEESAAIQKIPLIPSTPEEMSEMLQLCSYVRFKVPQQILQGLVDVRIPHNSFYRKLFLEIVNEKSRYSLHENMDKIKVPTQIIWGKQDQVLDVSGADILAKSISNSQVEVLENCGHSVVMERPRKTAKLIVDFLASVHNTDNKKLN
Sequence of UniProt P06401 (whole entry, looked up): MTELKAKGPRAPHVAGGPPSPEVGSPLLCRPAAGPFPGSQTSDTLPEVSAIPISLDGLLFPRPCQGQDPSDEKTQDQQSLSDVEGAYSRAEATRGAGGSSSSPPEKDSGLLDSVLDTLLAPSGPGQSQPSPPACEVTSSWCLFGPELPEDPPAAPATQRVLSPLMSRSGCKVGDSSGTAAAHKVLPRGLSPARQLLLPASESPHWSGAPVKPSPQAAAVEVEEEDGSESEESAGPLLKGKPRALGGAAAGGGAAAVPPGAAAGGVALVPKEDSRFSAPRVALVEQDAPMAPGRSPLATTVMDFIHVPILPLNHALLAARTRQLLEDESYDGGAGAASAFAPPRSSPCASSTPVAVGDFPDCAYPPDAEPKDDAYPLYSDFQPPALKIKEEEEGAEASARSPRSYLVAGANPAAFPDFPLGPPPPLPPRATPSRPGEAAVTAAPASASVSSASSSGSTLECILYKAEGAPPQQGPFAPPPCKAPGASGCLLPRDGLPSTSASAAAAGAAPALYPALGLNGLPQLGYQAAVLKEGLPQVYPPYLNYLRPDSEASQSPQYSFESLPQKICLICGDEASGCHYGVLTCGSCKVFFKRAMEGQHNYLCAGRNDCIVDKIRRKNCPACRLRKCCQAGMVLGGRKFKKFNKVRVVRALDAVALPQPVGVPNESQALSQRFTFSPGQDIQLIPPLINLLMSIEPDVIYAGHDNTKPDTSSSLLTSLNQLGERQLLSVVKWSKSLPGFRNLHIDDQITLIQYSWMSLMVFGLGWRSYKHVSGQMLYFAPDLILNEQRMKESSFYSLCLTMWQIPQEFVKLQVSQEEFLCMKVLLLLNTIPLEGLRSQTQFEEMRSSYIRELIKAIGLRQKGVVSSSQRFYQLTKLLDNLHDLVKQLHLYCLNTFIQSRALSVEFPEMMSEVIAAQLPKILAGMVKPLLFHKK
Sequence of UniProt P50391 (whole entry, looked up): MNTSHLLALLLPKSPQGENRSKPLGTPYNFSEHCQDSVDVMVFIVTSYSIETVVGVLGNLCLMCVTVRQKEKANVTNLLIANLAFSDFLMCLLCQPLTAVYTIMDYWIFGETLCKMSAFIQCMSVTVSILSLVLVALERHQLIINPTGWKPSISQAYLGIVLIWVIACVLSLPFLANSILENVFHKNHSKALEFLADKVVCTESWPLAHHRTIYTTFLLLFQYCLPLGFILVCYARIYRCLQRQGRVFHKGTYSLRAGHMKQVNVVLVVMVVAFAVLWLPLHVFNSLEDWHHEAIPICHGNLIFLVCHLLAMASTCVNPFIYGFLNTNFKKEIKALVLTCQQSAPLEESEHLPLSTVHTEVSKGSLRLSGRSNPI
Sequence of UniProt Q9Y5Y9 (whole entry, looked up): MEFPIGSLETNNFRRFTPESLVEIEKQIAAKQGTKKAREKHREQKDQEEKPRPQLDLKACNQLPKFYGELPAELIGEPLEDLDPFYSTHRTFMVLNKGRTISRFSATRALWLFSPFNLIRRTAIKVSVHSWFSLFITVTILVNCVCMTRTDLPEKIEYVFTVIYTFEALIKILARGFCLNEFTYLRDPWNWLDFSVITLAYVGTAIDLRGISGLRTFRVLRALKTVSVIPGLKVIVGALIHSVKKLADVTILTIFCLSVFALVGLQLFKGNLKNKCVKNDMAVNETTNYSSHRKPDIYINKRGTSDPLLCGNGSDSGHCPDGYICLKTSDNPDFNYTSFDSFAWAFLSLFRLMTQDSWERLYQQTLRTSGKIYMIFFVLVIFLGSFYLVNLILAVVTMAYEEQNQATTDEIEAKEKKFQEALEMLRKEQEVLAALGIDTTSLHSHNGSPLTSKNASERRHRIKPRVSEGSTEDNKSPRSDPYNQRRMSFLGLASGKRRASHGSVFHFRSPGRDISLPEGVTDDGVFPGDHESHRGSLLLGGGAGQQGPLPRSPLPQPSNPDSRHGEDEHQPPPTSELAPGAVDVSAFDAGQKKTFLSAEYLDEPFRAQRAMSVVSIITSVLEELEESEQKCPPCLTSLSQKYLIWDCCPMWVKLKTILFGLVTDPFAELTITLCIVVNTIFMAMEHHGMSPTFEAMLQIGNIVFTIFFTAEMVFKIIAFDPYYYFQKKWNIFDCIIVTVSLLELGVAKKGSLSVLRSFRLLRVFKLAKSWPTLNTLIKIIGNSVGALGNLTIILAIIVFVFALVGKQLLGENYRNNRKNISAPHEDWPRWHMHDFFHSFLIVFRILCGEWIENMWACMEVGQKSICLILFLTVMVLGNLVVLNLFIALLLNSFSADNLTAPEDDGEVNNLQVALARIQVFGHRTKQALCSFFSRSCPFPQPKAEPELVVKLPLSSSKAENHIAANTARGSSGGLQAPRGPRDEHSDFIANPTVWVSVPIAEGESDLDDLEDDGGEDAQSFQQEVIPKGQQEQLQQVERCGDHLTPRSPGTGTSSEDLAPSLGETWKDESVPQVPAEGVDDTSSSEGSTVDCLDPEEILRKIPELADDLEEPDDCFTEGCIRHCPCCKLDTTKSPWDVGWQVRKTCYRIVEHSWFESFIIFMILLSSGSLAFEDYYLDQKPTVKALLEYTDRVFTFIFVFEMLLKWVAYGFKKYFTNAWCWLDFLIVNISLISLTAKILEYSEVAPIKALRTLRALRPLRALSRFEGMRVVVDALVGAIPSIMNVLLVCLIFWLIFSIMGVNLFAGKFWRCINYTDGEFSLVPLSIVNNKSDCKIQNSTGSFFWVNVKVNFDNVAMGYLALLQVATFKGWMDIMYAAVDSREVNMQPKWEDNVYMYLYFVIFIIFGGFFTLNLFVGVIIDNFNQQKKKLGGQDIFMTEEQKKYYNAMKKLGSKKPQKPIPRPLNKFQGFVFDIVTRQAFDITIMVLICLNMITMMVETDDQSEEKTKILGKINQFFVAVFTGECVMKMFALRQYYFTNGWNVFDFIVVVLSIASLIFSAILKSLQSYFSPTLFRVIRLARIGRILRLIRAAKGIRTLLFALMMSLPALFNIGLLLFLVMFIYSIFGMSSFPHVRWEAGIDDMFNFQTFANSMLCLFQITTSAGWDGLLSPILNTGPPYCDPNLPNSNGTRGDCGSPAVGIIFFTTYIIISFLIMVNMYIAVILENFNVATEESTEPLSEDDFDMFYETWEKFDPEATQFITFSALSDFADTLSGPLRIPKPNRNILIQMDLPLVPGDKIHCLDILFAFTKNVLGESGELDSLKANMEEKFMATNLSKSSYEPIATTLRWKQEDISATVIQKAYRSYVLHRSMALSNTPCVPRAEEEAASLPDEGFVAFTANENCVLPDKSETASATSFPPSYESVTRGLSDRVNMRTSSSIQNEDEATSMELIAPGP
Sequence of UniProt P08173 (whole entry, looked up): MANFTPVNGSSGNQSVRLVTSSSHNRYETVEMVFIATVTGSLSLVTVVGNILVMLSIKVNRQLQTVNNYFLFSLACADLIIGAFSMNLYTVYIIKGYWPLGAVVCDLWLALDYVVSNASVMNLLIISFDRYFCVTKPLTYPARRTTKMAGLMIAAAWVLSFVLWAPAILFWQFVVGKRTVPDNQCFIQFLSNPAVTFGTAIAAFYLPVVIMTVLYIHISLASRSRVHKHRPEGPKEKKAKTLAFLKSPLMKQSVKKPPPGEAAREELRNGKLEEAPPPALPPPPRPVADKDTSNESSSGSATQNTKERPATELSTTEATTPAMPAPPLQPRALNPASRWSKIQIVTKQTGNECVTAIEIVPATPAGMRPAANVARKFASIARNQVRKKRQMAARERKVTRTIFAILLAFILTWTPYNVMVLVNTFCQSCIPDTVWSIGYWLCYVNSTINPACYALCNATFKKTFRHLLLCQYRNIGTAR
Sequence of UniProt P12369 (whole entry, unmodified, looked up): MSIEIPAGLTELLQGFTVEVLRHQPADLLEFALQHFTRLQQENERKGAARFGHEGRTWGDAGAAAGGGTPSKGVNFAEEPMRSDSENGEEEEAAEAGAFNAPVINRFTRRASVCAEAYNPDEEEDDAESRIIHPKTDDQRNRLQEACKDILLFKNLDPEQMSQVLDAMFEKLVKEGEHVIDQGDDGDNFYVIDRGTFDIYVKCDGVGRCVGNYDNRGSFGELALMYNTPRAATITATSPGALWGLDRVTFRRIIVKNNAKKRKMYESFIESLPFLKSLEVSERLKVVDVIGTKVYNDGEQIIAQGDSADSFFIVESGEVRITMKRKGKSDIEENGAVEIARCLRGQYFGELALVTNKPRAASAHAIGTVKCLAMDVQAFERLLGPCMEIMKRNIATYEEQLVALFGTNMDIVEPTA

Molecule | target | test | test system | setting | how to read | endpoint | result
CCN(CC)C(=O)c1ccc(COc2ccccc2-c2cc(=O)n(C3CCCCC3O)cn2)cc1 (stereo not drawn) | CHRM1 | positive allosteric modulator, IP1 accumulation | CHO-M1 cells | 10 µM, 60 min, 37 °C, together with: ACh | baseline: ACh alone, higher = stronger potentiation | ΔpEC50 of ACh | 0.74 ± 0.13 log units
COc1cc2c(cc1OC)-c1c/c(=N\c3c(C)cc(C)cc3C)n(C)c(=O)n1CC2 | PDE1A (Homo sapiens, UniProt P54750) | cAMP hydrolysis, inhibitor |  | up to 50 µM |  | IC50 | inactive
COC(=O)c1scc(C)c1NC(=O)C(C)N1CCOCC1 (stereo not drawn) | SCN10A (Homo sapiens, UniProt Q9Y5Y9) | cell membrane chromatography |  |  | higher = stronger binding | capacity factor k′ | 11
O=c1cc(-c2ccccc2OCc2ccc(Br)cc2F)ncn1C1CCCCC1O (stereo not drawn) | CHRM1 | allosteric agonist, IP1 accumulation | CHO-M1 cells | 10 µM, unit not given | baseline: maximum ACh response | change in baseline activity | 36 ± 2.8
CCCCCCCCCCCCCCCC(=O)N[C@@H](CCC(=O)NCCCC[C@H](NC(=O)[C@H](CCC(=O)O)NC(=O)[C@@H]1CCCN1C(=O)[C@@H](NC(=O)[C@H](C)NC(=O)[C@H](CC(N)=O)NC(=O)[C@H](CC(=O)O)NC(=O)CNC(=O)[C@@H]1CCCN1C(=O)[C@H](Cc1ccc(O)cc1)NC(=O)[C@@H](NC(=O)[C@@H]1CCCN1C(=O)[C@H](CCC(=O)O)NC(=O)[C@H](CC(C)C)NC(=O)[C@@H]1CCCN1C(=O)[C@H](C)NC(=O)c1ccc2c(c1)C(=O)OC21c2ccc(O)cc2Oc2cc(O)ccc21)C(C)C)[C@@H](C)O)C(=O)N[C@@H](CCSC)C(=O)N[C@@H](C)C(=O)N[C@@H](CCC(N)=O)C(=O)N[C@@H](Cc1ccc(O)cc1)C(=O)N[C@@H](C)C(=O)N[C@@H](C)C(=O)N[C@@H](CC(=O)O)C(=O)N[C@@H](CC(C)C)C(=O)N[C@@H](CCCNC(=N)N)C(=O)N[C@@H](CCCNC(=N)N)C(=O)N[C@@H](Cc1ccc(O)cc1)C(=O)N[C@H](C(=O)N[C@@H](CC(N)=O)C(=O)N[C@@H](CCSC)C(=O)N[C@@H](CC(C)C)C(=O)N[C@H](C(=O)N[C@@H](CCCNC(=N)N)C(=O)N1CCC[C@H]1C(=O)N[C@@H](CCCNC(=N)N)C(=O)N[C@@H](Cc1ccc(O)cc1)C(N)=O)[C@@H](C)O)[C@@H](C)CC)C(=O)O | NPY4R (Homo sapiens, UniProt P50391) | radioligand displacement | COS-7 transiently expressing | 1 µM, 90 min, room temperature, together with: [3H]-hPP 1 nM | baseline: total binding | specific binding | 36%
CCCCc1nc2c([nH]1)c(=O)n(C)c(=O)n2C | PGR (Homo sapiens, UniProt P06401) | reporter gene, antagonist, MMTV-luciferase | T47D/A1-2 | 10 µM, 24 h, together with: 5 nM progesterone | baseline: maximal activity | remaining activity | 155%
C=CC(=O)N1CCC(CCCC(=O)N2CCN(c3nc(-c4cnc(N)nc4C(F)F)nc(N4CCOCC4)n3)CC2)CC1 | PIK3CA (Homo sapiens, UniProt P42336) | covalent inhibitor |  |  |  | kinact/KI | < 100000 M⁻¹ s⁻¹
O=C(O)c1ccccc1-c1ccc(Cn2c3ccccc3c3cc(Br)ccc32)cc1 | PPARG (Homo sapiens, UniProt P37231) |  | COS-7 | 10 µM, 39 h |  | Emax | 35.8%
CC(C)(C)OC(=O)Nc1ccc(COc2ccccc2-c2cc(=O)n(C3CCCCC3O)cn2)cc1 (stereo not drawn) | CHRM1 | allosteric agonist, IP1 accumulation | CHO-M1 cells | 1 µM, unit not given | baseline: maximum ACh response | change in baseline activity | 43.1 ± 2.8
Ac-GPSLNPFDEED-NH2 (N-acetyl, C-amide) | mouse EHD1 EH domain | binding, ITC | peptide | concentration not given, pH 7.0, 20 °C, KCl 0 mM |  | entropy change | -11.6 cal/mol/K
CCCC(=O)Nc1ncnc2c1ncn2[C@@H]1O[C@@H]2COP(=O)(O)O[C@H]2[C@H]1O | cAMP-dependent protein kinase type II-beta regulatory subunit, holoenzyme with catalytic subunit (Prkar2b, Rattus norvegicus, UniProt P12369, S112A) | PKA holoenzyme activation, activator, fluorescence anisotropy |  |  | baseline: RIIβ over RIα, higher = RIIβ-selective | selectivity ratio | 3.6
O=C(O[C@@H]1Cc2c(O)cc(O)cc2O[C@@H]1c1cc(O)c(O)c2c(=O)c(O)cc([C@H]3Oc4cc(O)cc(O)c4C[C@H]3O)cc12)c1cc(O)c(O)c(O)c1 | Protein immune deficiency (imd, Drosophila melanogaster, UniProt Q7K4Z4) | inhibitor, SDD-AGE densitometry |  | 100 µM, 30 min, room temperature |  | reduction of aggregates | 58.2%
Cn1cc(-c2ccc(COc3ccccc3-c3cc(=O)n(C4CCCCC4O)cn3)cn2)cn1 (stereo not drawn) | CHRM1 | allosteric agonist, IP1 accumulation | CHO-M1 cells | 10 µM, unit not given | baseline: maximum ACh response | change in baseline activity | 78.7 ± 3.4
COc1ccc(C)c2sc(NS(=O)(=O)c3cnn(C)c3)nc12 | CHRM4 (Homo sapiens, UniProt P08173) | calcium mobilization, positive allosteric modulator | CHO expressing hM4 and Gqi5 | concentration not given, together with: acetylcholine EC20 |  | activity | inactive
O=C(c1cccc(-c2ccc(-c3cn(C(=O)N4CCCCC4c4ccccc4)nn3)cc2)c1)N1CCCCC1 (stereo not drawn) | Abhd6 (Mus musculus, UniProt Q8R2Y0) | inhibitor, competitive ABPP | mouse, liver | oral |  | dose for complete inhibition | 10 to 40 mg/kg
